Measurements collected from several papers.
Each numbered part is a random draw from the data of one study; scales do not carry over between parts. Changes are numbered by the printed parent chain.

Sample 1
Target: CCNA2, cyclin fold, Cln2 fusion (human)
Method: yeast growth competition, sequencing
Sample: yeast
Notes: strong parent motif
Relative to: not given
Direction: higher = stronger binding
Starting sequence: GMNC docking peptide (human); KNAKRNLSSEFAN
Substitution	normalised enrichment score
K4N	1.91
K4R	6.1
N6L	0.257
L7Q	0.421

Sample 2
Target: Phosphate system positive regulatory protein PHO4, full length, GST-tagged (PHO4, Saccharomyces cerevisiae, UniProt P07270, residues 1-312)
Method: competition protein-binding microarray
Form: double-stranded DNA, one strand shown
Sample: in vitro
Tested at: 2 µM
Notes: whole 60-bp probe, lowest competitor level
With: Cbf1 competitor, 0.05 µM
Direction: higher = stronger binding
Shared flanks, not repeated: … GTCTTGATTCGCTTGACGCTGCTG
Residues (chain): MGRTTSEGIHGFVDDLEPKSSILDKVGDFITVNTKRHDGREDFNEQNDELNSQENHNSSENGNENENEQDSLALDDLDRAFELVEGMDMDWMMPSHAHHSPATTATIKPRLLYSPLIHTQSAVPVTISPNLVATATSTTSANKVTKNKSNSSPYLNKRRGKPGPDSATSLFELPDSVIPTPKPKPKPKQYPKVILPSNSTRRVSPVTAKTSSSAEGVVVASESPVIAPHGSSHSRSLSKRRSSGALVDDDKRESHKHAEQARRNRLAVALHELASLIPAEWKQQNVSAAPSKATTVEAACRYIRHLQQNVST
Sequence	fluorescence intensity
CTTTCCCGATCTTGTTGAGTGGGTGTAGCACATTTG	4700 a.u.
TATCCCATCTAATATTCCGTGATGGTTTAATGGTCA	4090 a.u.
CTAACGAAGGTTTGACTAGTGGGTGACAAGCCAAGT	3440 a.u.
CTTCTGTAAATTTGGGGAGTGGGTGGACGCGCCCCG	4980 a.u.
CTTCTGTAAATTTGTTCCGTGGGTGGACGCGCCCCG	4840 a.u.

Sample 3
Target: Interferon regulatory factor 5, full length, phosphomimetic (IRF5, Homo sapiens, UniProt Q13568-2, residues 1-514, S451D/S453D/S456D/S462D)
Method: protein-binding microarray
Form: double-stranded DNA, one strand shown
Sample: in vitro
Tested at: 940 nM top
Notes: 60-bp whole probe
With: salmon DNA 0.4 mg/ml
Relative to: random background probes
Direction: higher = stronger binding
Shared flanks, not repeated: GCCTAGCAC … GTCTTGATTCGCTTGACGCTGCTG
Sequence	fitted relative affinity [z-score]
TTAGAACGGAGTCTCGATTAGTGCTAG	2.05
CCACTTTCACTTCTCCCTTTGTGCTAG	6.16
GACGAAATGAGACTGGAGACGTGCTAG	-0.345
GACGGACTGGACACTGGTGACGTGCTA	-0.577
TTAGGCCTGGGTTTCGGTTAGTGCTAG	7.05
TTAGGACTGGGTTACGGTTAGTGCTAG	-0.157
TCATCTTGCAGATGTCGCACTGTGCTA	0.0815
CTAGGTTTCGGTTTCGGTTAGTGCTAG	15.6

Other studies, line by line
Molecule	target	assay	system	setting	how to read	quantity	result
PhoQ, residues 284 288 289 292 302 303 HSYLQF	PhoP, residues 12 14 15 18 19 IFFTR (Escherichia coli, UniProt P23836)	Sort-seq, refers to: YFP reporter	E. coli	PhoQ-PhoP variant library, with: 10 µM Mg2+	relative to: high Mg2+ state, higher = stronger signaling	fold induction	1.78

Repeated from above (sample 3):
Sequence	fitted relative affinity [z-score]
CTAGGTTTCGGTTTCGGTTAGTGCTAG	15.6
